Assay results pooled from the literature.
Numbered parts are unrelated; each lists some results of a single study.

Study 1 — method: protein binding microarray; molecule type: double-stranded DNA, one strand shown; sample: in vitro; tested at: not given; relative to: not given; reading: higher = stronger binding
Target: Histone acetyltransferase KAT6A, winged helix 1, GST fusion (KAT6A, Homo sapiens, UniProt Q92794, residues 1-85)
Notes: 8-mer, flanks averaged, mean of 2 arrays, mostly near background
Construct (chain): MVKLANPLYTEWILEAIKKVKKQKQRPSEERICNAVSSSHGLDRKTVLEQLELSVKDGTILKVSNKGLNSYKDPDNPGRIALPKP
The E-score of `ACCTTCCT` is reported as 0.00756.
`CGCAAGAA` gave an E-score of 0.195.
With `GCGCTGCA` the E-score was 0.297.
`GATGAAAA` gave an E-score of -0.0937.
The E-score of `CGGTTTCC` is reported as 0.254.
`TAAACTGA` has an E-score of -0.0324.
`GACAATGC` has an E-score of -0.16.
With `CTTCAGTC` the E-score was -0.135.
The E-score of `ACTCATTA` is reported as -0.0539.
`CTTTGCAC` gave an E-score of -0.25.
The E-score of `AGGCGTAA` is reported as 0.0161.
`GAGCTAGA` gave an E-score of -0.039.
`GTCGTATA` has an E-score of 0.0503.
`AACCAACT` gave an E-score of -0.214.
With `ATGGGAAT` the E-score was -0.184.
For `CCCCTTCA`, the E-score was -0.102.
The E-score of `ACCTAGCG` is reported as 0.239.

Study 2 — method: RNA Bind-n-Seq; molecule type: RNA; sample: in vitro; tested at: 365 nM; relative to: no-protein control; reading: higher = stronger binding
Target: RNA binding protein fox-1 homolog 2, RRM domain, GST-SBP tag (RBFOX2, Homo sapiens, UniProt O43251-10, residues 100-194)
Notes: natural RNA segment, single round, ends assumed
Construct (chain): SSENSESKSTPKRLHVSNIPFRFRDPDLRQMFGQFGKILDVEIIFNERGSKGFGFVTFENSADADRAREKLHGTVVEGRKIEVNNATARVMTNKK
Under “RBNS enrichment (R)”, `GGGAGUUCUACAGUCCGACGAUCUGUUGCUGCAGAUAAAUGAUGAUUGUCGUGGGAUAUCUGGAUCACUGAGCUCUGUGCUUUCAUUCCUAGAGAUGUUUCUCAUUCCCAUUUAGUGAAAUGCUGUUGCCCCAUGGAAUUCUCGGGUGCCAA` is recorded as 0.665.
`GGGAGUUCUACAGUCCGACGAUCCAGCCCAUGCCCACCUGCCCAUCACAGGGUUGGGCCCAGAUCUGGUCCCUUGCAGCUAGUUUUCUAGAAUUUAUCACACUUCUGUGAGACCCCCACACCUCAGUUCCCUUUGGAAUUCUCGGGUGCCAA` — result for “RBNS enrichment (R)”: 0.209.
Under “RBNS enrichment (R)”, `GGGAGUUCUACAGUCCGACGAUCGCCAGUUGCUGUUGCACAGGAGGCGAGAACAGCACACUUCAACCCCAGCUUGCUGGUCGGCUUUCCUCUAGAGAGAGCCGGUUUUGGGGCCAUUUCCCUUUGAUGCUUUGUGGAAUUCUCGGGUGCCAA` is recorded as 3.88.
For `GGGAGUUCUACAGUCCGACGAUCGACACUAGAUGGCUGUGAAUGUGAUCCGCUCACUGACACUCUGUAAAGGCCAAUCAAUGCACUGUCUGUCUCUCCUUUUAGGAGUAAGCCAUCCCACAAGUUCUAUACCAUGGAAUUCUCGGGUGCCAA`, “RBNS enrichment (R)” read 0.369.
`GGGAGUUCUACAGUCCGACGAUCCAGUUUGGUCUGCAUUUGUUAGAAGUGUAACUCCUAACAACCCAAAGACCUAUUUAAUAAUUGGUGCAUAAAUGAAAGUAGUACUGUAUACUUGAAACUGUUUAAGUACAUGGAAUUCUCGGGUGCCAA` — result for “RBNS enrichment (R)”: 0.399.
For `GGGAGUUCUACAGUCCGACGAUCGAACCUGCACUUGGUGCUAAUCUGAGGGGAGGAAGGUGGGCAGGGUCUUGGACUCAAAGGCUAAACUGAUCCAGUCCUUUCUCCUUUGUGUCAAUAAAAGGCUAAACUGAUGGAAUUCUCGGGUGCCAA`, “RBNS enrichment (R)” read 0.274.
Under “RBNS enrichment (R)”, `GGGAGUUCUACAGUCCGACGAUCAAACUAAUUAAUAGCUUUGGACACUUAAAAGAGCUCUAAAUUUGCUUGUACAUAAAGGCUUAAUUUGUUUUCCUUGUUAGGGUCAAGGGUGUCCUCCACUCUUUAACAGCUGGAAUUCUCGGGUGCCAA` is recorded as 1.12.
`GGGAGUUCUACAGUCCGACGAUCUUUUUUAAAAAAAAUCUAUAAAUAGGGUAAUUGCUGAGGUGUGCGGUUUAUCUUUGAGAUGAUAAAGCUAAAUUAUAGUCUUUUGCCAGAGAAACUGAGGUAACUGUCAUUGGAAUUCUCGGGUGCCAA`: “RBNS enrichment (R)” 0.603.

Study 3 — method: RNA Bind-n-Seq; molecule type: RNA; sample: in vitro; tested at: not given; relative to: input RNA pool; reading: higher = stronger binding
Target: RING finger protein unkempt homolog, zinc fingers 1-6, GST-SBP tag (UNK, Homo sapiens, UniProt Q9C0B0, residues 30-357)
Notes: RNA with constant flanks, human and mouse sites, ends assumed
Target sequence (chain): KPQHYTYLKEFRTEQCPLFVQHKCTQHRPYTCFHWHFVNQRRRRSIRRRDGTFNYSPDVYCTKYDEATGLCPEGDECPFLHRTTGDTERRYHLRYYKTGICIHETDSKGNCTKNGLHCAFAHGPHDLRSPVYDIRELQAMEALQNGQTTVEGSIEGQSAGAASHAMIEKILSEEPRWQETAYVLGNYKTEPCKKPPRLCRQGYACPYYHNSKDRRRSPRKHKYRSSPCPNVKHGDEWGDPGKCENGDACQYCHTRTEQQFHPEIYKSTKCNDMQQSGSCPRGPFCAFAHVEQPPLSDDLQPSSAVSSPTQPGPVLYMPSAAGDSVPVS
`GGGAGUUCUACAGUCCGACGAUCAGUGAUAUUCAUUUGGCAGAACAUCAUAAACAGGUGUUAUAUGAUGGGAAACUUGCAAGUAGCAUUGCCUUUACAUAUAAUGCUAAGGCCACUGAUGCUCAGCUCUGCCUGGAAUCAUCACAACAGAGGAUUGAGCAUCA` has a bound/input enrichment of 0.203 ratio.
With `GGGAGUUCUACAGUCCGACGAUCAUCCAGGCGGCCCAUGACUCCGUGGCCCAGGAGGGCCAGUGUCGGGUAGAUGACAAAGUGAAUUUCCAUUUUAUUCUGUUCAACAACGUGGACGGCCAUCUGUACGAGCUCGAUGGGCGACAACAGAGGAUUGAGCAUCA` the bound/input enrichment was 0.0772 ratio.
The bound/input enrichment of `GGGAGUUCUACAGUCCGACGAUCUGUGUGAUGCUUGUCUCUAAUUUGCCUAAUAAAGGAUAUUCUGUAGAAGAAGUUUAUGACUUAGCAAAACCAUUUGGUGGUUUAAAGGAUAUCUUGAUUUUAUCAUCUCAUAAAAAGGCACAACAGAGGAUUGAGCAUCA` is reported as 0.434 ratio.
`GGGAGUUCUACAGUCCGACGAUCAGCAAUAUUCGUACAUUAUGUGAUUUAUGUUUUUGAUGUCAAAAGUUUGUGCUUUGGGUGAAAUAUUUGUAUAACUGCUGUUUUCUUCACUACUCCUGUACACAUUUCACCAUGUGGUCACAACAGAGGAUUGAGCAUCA` gave a bound/input enrichment of 0.44 ratio.
`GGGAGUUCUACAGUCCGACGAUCGAUACAUCCAACAGAGUAACAGUCAAGAGCCUUGAUUAUAGUAGGAAGCUGAAAAAUGUAUUAGUUACCAUUUACUGGCUGGGAAAAGCAGCAAACAGCUGCACAUCCUACAGCGGAACGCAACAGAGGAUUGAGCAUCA` has a bound/input enrichment of 0.494 ratio.
The bound/input enrichment of `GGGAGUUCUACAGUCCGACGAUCAAGAAGAGAAGGAAGAUGAAAUCUCAUUAGAAGAUCUAAUUGAAAGAGAGCGUUCUGCCCUAGGUCCAAAUGUUACCAAAAUCACUCUAGAGUCUUUUCUCGCGUGGAAGAAGAGGAAAACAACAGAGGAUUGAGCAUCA` is reported as 3.88 ratio.
The bound/input enrichment of `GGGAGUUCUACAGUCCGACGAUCAAACUUACACUGGUUUGACAGUGGUCAGUUACAUGUCCCCACAGUUCCAAUGUGCCUGUUCACUCACCUCUCCCUUCCCCAACCCUUCUCUACUUGGCUGCUGUUUUAAAGUUUGCCCUUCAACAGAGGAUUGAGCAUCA` is reported as 0.326 ratio.
The bound/input enrichment of `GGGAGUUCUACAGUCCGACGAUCAACAAAAAUCAAGAGAAUGUUUCUCAUCUCUCAGUUUCUUCUGCUUCACCAACAUCAUCUGUAGCAUCAGCUGCAGGAAGCAUAACAAGCUCUAGUCUGCAGAAAUCUCCUACAUUGCUCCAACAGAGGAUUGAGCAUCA` is reported as 0.144 ratio.

Mixed results
`PhoQ, residues 284 288 289 292 302 303 MLMVEA` gave a fold induction of 10.5 (PhoP, residues 12 14 15 18 19 NYFRM (Escherichia coli, UniProt P23836); Sort-seq, measured: YFP reporter; E. coli; PhoQ-PhoP variant library, added: 10 µM Mg2+; relative to: high Mg2+ state, higher = stronger signaling).

A few entries again (study 2):
Under “RBNS enrichment (R)”, `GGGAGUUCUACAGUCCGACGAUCGCCAGUUGCUGUUGCACAGGAGGCGAGAACAGCACACUUCAACCCCAGCUUGCUGGUCGGCUUUCCUCUAGAGAGAGCCGGUUUUGGGGCCAUUUCCCUUUGAUGCUUUGUGGAAUUCUCGGGUGCCAA` is recorded as 3.88.
For `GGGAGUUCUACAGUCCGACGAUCGACACUAGAUGGCUGUGAAUGUGAUCCGCUCACUGACACUCUGUAAAGGCCAAUCAAUGCACUGUCUGUCUCUCCUUUUAGGAGUAAGCCAUCCCACAAGUUCUAUACCAUGGAAUUCUCGGGUGCCAA`, “RBNS enrichment (R)” read 0.369.
`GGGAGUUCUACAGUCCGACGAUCCAGUUUGGUCUGCAUUUGUUAGAAGUGUAACUCCUAACAACCCAAAGACCUAUUUAAUAAUUGGUGCAUAAAUGAAAGUAGUACUGUAUACUUGAAACUGUUUAAGUACAUGGAAUUCUCGGGUGCCAA` — result for “RBNS enrichment (R)”: 0.399.
For `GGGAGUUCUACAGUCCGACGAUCGAACCUGCACUUGGUGCUAAUCUGAGGGGAGGAAGGUGGGCAGGGUCUUGGACUCAAAGGCUAAACUGAUCCAGUCCUUUCUCCUUUGUGUCAAUAAAAGGCUAAACUGAUGGAAUUCUCGGGUGCCAA`, “RBNS enrichment (R)” read 0.274.
Under “RBNS enrichment (R)”, `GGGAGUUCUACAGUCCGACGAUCAAACUAAUUAAUAGCUUUGGACACUUAAAAGAGCUCUAAAUUUGCUUGUACAUAAAGGCUUAAUUUGUUUUCCUUGUUAGGGUCAAGGGUGUCCUCCACUCUUUAACAGCUGGAAUUCUCGGGUGCCAA` is recorded as 1.12.
